# Measurements of several laboratories.
# “And” joins repeats or separate records; there may be more than shown. ± marks the error that the study gave.
Compound,test,test system,setting,AUC(0-last)
O=C(Nc1nc2cccc(-c3ccc(CN4CCS(=O)(=O)CC4)cc3)n2n1)C1CC1,,"healthy subjects, plasma","oral, 100 mg single dose, 1 h after itraconazole, fasting, mean, added: itraconazole 200 mg",3110 ng·h/mL
C[C@@H](O)[C@H]1C(=O)N2C(C(=O)O)=C(S[C@@H]3CN[C@H](C(=O)N(C)C)C3)[C@H](C)[C@H]12,"UHPLC, noncompartmental","pig (Danish Landrace), plasma, free concentration","iv infusion, 1000 mg over 10 min, added: vancomycin co-administered",51900 ng·h/mL
N[C@@H](Cc1ccc(O)c(O)c1)C(=O)O,,"rhesus and cynomolgus macaque, plasma","subcutaneous, dose not given, PDE9 inhibitor vehicle co-dosed",340 ng·h/mL and 329 ng·h/mL
CN[C@H](CC(C)C)C(=O)N[C@H]1C(=O)N[C@@H](CC(N)=O)C(=O)N[C@H]2C(=O)N[C@H]3C(=O)N[C@H](C(=O)N[C@H](C(=O)O)c4cc(O)cc(O)c4-c4cc3ccc4O)[C@H](O)c3ccc(c(Cl)c3)Oc3cc2cc(c3O[C@@H]2O[C@H](CO)[C@@H](O)[C@H](O)[C@H]2O[C@H]2C[C@](C)(N)[C@H](O)[C@H](C)O2)Oc2ccc(cc2Cl)[C@H]1O,microdialysis,"Danish Landrace pigs, subcutaneous adipose tissue","intravenous, 1000 mg, 100 min infusion, added: meropenem",86800 ng·h/mL
C[C@]12C=CC(=O)C=C1CC[C@@H]1[C@@H]2[C@@H](O)C[C@@]2(C)[C@H]1C[C@H]1O[C@@H](C3CCCCC3)O[C@]12C(=O)CO,,"children with asthma, serum","inhaled, 160 µg ciclesonide, day 7, HFA-MDI with spacer, steady state",0.61 ± 0.04 ng·h/mL
Cc1c(Cl)c(C)[n+]([O-])c(Cl)c1-c1noc(-c2cc(O)c(O)c([N+](=O)[O-])c2)n1,,"Parkinson's disease patients, plasma","oral, 50 mg, day 14, steady state, once daily",2020 ± 783 ng·h/mL
COc1cccc(N2CCN(C3=Nc4c(F)cccc4[C@H](CC(=O)O)N3c3cc(C(F)(F)F)ccc3OC)CC2)c1,UHPLC-MS/MS,"healthy women, plasma","intravenous infusion, 720 mg single dose, 60 min infusion, HPβCD formulation",167000 ± 23300 ng·h/mL
CCOc1ccc(Cc2cc([C@@H]3S[C@H](CO)[C@@H](O)[C@H](O)[C@H]3O)c(OC)cc2C)cc1,,"Japanese type 2 diabetes patients, plasma","oral, 5 mg single dose, eGFR 45-59 mL/min/1.73 m^2",2120 ± 804 ng·h/mL

# Repeated from above:
Compound,test,test system,setting,AUC(0-last)
Cc1c(Cl)c(C)[n+]([O-])c(Cl)c1-c1noc(-c2cc(O)c(O)c([N+](=O)[O-])c2)n1,,"Parkinson's disease patients, plasma","oral, 50 mg, day 14, steady state, once daily",2020 ± 783 ng·h/mL
